Experimental data gathered from unrelated publications.
A part holds a random share of what one study measured.

Sample 1
Target: RING finger protein unkempt homolog, zinc fingers 1-6, GST-SBP tag (UNK, Homo sapiens, UniProt Q9C0B0, residues 30-357)
Technique: RNA Bind-n-Seq
Form: RNA
Matrix: in vitro
Tested at: not given
Notes: RNA with constant flanks, ends assumed
Baseline: input RNA pool
Reading: higher = stronger binding
Construct (chain): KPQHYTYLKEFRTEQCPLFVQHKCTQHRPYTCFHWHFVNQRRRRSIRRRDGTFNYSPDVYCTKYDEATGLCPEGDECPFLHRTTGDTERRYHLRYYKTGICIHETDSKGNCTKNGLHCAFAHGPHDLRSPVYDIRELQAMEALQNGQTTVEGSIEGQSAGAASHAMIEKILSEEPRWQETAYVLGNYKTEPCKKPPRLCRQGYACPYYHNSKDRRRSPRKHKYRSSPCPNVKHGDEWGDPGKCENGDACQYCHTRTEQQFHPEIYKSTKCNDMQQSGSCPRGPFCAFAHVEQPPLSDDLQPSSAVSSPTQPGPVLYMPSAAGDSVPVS
Strand	bound/input enrichment
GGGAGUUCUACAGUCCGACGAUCCGCCUCGGGUCGUGGAGCCAGGAGCGACGUCACCGCCAUGGCAGGCAUCAAAGCUUUGAUCCGUUUGUCCUUUGGAGGAGCAAUCGGACUGAUGUUUUUGAUGCUUGGAUGUGCCCUUCCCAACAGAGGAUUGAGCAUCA	0.0437 ratio
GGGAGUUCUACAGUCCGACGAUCUGAACACAAUUCAUAAAGAUUUCUCUUUUAUACCUUCCUCACUGGCCCCCUCCACCUGCCCACCGUCACCAAAUUCUGUUUUAAAUCAAUGACCUAAGAUCAACAAUGAAGUAUUUUAUACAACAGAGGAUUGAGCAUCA	0.969 ratio
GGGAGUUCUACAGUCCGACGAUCCAGCUGGAAGAUGGCCGCACCCUGUCAGACUACAACAUCCAGAAAGAGUCCACCCUGCACUCCGUCCUUCGCCUCAGAGGUGGGAUGCAGAUCUUUGUGAAGACCCUGACAGGCAAAACCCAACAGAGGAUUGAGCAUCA	0.152 ratio
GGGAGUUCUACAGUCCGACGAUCCUGAAUGAUUUUGGCUUCAUGAUCUUUCACUCACCAUAUUGUAAACUGGUGCAGAAAUCUCCCGCUCGGAUGUUCCUGAAUGACUUUCUUAAUGAUCAAAACAGAGAUAAAAACAGUAUUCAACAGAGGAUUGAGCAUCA	0.104 ratio
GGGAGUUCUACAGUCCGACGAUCCUAUAGAGGGAAAUAAUAGACAGAUUAAGAUGAAAGAAAAGCUUUCUGGGAUGAUUCAGUUACCGGAAAUGCCAAGAAAAGGGCAUUUAAUUAUAAUAUCCUAAUUUUACAUCACAACAUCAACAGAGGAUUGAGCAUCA	1.68 ratio
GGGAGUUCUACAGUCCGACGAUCGUGCCUGAGGUGAAAAAAGUUUGUAAGUUAUUGAAUUAUGGUGUUCAUUAGAACAGCUACCCGCUGAUUCCCCUAUUUUAACAAACUGACAAGAGCACAUCCAUAAAAUGAAAACCUGUUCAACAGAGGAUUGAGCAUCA	0.304 ratio
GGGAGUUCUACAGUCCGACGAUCGAUAUUCUCUACGCCCGGCAAAAGAUUGUUGUCAUAGCGAAAGCCUUUGGUCUCCAAGCCACCGAUCUGGUGUACAUUGACUUUCGAGAUGGAGCUGGGCUGCUUAGACAGUCACGAGAACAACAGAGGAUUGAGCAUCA	0.186 ratio
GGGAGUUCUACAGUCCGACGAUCAGAAAACAGAUAAAUAAUAUAUUUUAUAGGUUUAUUUAUGAAACAGAGCAUCAUAAUGGCACCGCAGAGUUACUGGAAAUAUUGGGAAGUAUAAUUAAUGGAUUUGCCUUACCACUAAAACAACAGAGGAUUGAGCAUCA	0.335 ratio

Sample 2
Target: Prothrombin, mature alpha-thrombin (F2, Homo sapiens, UniProt P00734)
Technique: aptamer microarray, sandwich
Form: DNA with 2'F-ANA
Matrix: in vitro
Tested at: 200 nM
Notes: whole 15-mer aptamer, many near background
With: Cy3 exosite-II aptamer, 400 nM
Reading: higher = stronger binding
Strand: GGTTGGTGTGGTTGG
Modification	mean fluorescence intensity
2'F-ANA at 1 4 5 6 7 9 10 13 15	50 a.u.
2'F-ANA at 4 7 9 11	469 a.u.
2'F-ANA at 1 2 3 4 5 7 9 10 11 12 14 15	50.3 a.u.
2'F-ANA at 1 2 3 6 10 12 15	88.8 a.u.
2'F-ANA at 7 8 13 14 15	226 a.u.
2'F-ANA at 1 2 6 7 9 11 14 15	50.7 a.u.
2'F-ANA at 1 2 4 5 7 9 11 14 15	65.9 a.u.
2'F-ANA at 3 4 5 7 8 10 13 14	47.3 a.u.
2'F-ANA at 1 2 3 6 7 8 11 12 15	342 a.u.
2'F-ANA at 6 9 11 13 15	318 a.u.
2'F-ANA at 3 5 6 7 8 10	127 a.u.
2'F-ANA at 2 6 8	428 a.u.
2'F-ANA at 3 5 6 9 10 11 12 14	48.9 a.u.
2'F-ANA at 3 4 9 10 11 12 14 15	186 a.u.
2'F-ANA at 3 5 6 7 9 10 11 12 15	62.3 a.u.
2'F-ANA at 1 2 3 4 6 8 9 11 13 14	66.2 a.u.
2'F-ANA at 2 5 8 10 11 14	46.4 a.u.
2'F-ANA at 2 3 4 5 6 7 8 9 13 15	74.3 a.u.
2'F-ANA at 2 4 6 8 10 12 13 15	88.7 a.u.
2'F-ANA at 1 2 5 9 10 12 13	110 a.u.
2'F-ANA at 4 5 7 9 14 15	43.2 a.u.
2'F-ANA at 1 8 12 15	474 a.u.
2'F-ANA at 2 5 6 7 10 13 14 15	44.9 a.u.
2'F-ANA at 1 3 4 5 7 8 9 11 13 14	46.6 a.u.

Sample 3
Target: Histone acetyltransferase KAT6A, winged helix 2, GST fusion (KAT6A, Homo sapiens, UniProt Q92794, residues 85-181)
Technique: protein binding microarray
Form: double-stranded DNA, one strand shown
Matrix: in vitro
Tested at: not given
Notes: 8-mer, flanks averaged, mean of 2 arrays, mostly near background
Baseline: not given
Reading: higher = stronger binding
Residues (chain): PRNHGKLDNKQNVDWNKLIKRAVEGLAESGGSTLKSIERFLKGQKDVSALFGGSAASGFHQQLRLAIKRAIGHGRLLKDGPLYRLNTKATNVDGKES
Strand	E-score
AGTTTGAC	0.0303
GCGGTCAC	0.0468
CGATGCCG	0.0999
GGAGGGTA	-0.0184
ACTGTGGA	-0.079
AGGCCTAA	0.012
ACTCCTGA	0.0701
CTAAAGCA	0.192
CGAAAATC	0.108
ACCATGCC	0.131
AGCAGCGA	0.181
TAGGTCCA	-0.061
GTACGCAC	-0.122
CTGAATCA	0.0228
CTTGGCAC	0.138
AGCGTTTA	-0.144
ACGGCCCA	0.063
AATATGTC	-0.0331
CATTCTAG	-0.0557
CGCCGAAA	0.0744
AAGCCCCT	-0.0214

Sample 4
Target: Interferon regulatory factor 3, full length, phosphomimetic (IRF3, Homo sapiens, UniProt Q14653, residues 1-427, S386D/S396D/S398D/S402D/T404D/S405D)
Technique: protein-binding microarray
Form: double-stranded DNA, one strand shown
Matrix: in vitro
Tested at: 2540 nM top
Notes: 60-bp whole probe
With: salmon DNA 0.4 mg/ml
Baseline: random background probes
Reading: higher = stronger binding
Constant ends, left off below: GCCTAGCAC … GTCTTGATTCGCTTGACGCTGCTG
Target sequence (chain): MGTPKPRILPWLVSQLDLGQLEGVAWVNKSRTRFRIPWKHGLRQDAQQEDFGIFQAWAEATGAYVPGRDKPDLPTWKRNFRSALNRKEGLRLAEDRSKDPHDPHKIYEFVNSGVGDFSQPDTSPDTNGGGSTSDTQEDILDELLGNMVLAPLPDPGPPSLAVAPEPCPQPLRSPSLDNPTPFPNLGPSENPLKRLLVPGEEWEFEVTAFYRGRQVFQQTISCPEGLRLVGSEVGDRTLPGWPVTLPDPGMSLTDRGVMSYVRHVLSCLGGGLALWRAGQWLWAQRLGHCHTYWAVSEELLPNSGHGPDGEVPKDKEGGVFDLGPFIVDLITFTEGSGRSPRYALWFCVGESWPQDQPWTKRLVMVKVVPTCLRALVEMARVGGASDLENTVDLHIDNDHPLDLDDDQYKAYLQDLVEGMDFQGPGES
Strand	fitted relative affinity [z-score]
GACGGTTCCCTTTTCCTCACGTGCTAG	5.81
GACGACATCAGTTTCGAGACGTGCTAG	2
TCATCCATGGGTATGGCACTGTGCTAG	-0.368
GACGGTTTCGGTGTCGGGACGTGCTAG	6.45
TTAGGACTGGACGTTCGGTTAGTGCTA	-0.433
GACGAACTTAGTCTCGAGACGTGCTAG	-0.0342
GACGGTTTCCTGATCCTGACGTGCTAG	4.23
ATAAAAGAACTCCTGGGGGAGTGCTAG	-0.627
TTAGGTTTCGGGTTTGGGTTAGTGCTA	4.94
TTAGGTTTCGGTATCCGTTAGTGCTAG	7.83
TTAGGTTTCCTTCTCGTTTAGTGCTAG	10.1
TTAGATATCAGTCACGATTAGTGCTAG	0.0726
TCACCTCTGCTGCTGGCACTGTGCTAG	-0.232
GACGATATCGGATATCGAGACGTGCTA	0.767
GACGAACTGAGTTTGGAGACGTGCTAG	-0.24
GTTTGTGTGTGTATGTGGTCGTGCTAG	0.0769

A few entries again (sample 4):
Strand	fitted relative affinity [z-score]
GACGACATCAGTTTCGAGACGTGCTAG	2
TTAGGTTTCCTTCTCGTTTAGTGCTAG	10.1
GACGGTTCCCTTTTCCTCACGTGCTAG	5.81
TCACCTCTGCTGCTGGCACTGTGCTAG	-0.232
GTTTGTGTGTGTATGTGGTCGTGCTAG	0.0769
GACGAACTTAGTCTCGAGACGTGCTAG	-0.0342
GACGGTTTCCTGATCCTGACGTGCTAG	4.23
